Published values from different studies.
Numbers after ± are the reported error.

C=C1CC[C@H](OCCCNC(=O)CCOCCOCCOCCOCCOCCOCCOCCOCCOCCOCCOCCOCCOCCOCCOCCOCCOCCOCCOCCOCCOCCOCCOCCOCCOCCOCCOCCOCCOCCOCCOCCOCCOCCOCCOCCOCCNC(=O)CCN2C(=O)CC(SC[C@H](NC(=O)[C@H](CCCNC(=N)N)NC(=O)[C@@H]3CCCN3C(=O)[C@H](CCC(N)=O)NC(=O)[C@H](CC(C)C)NC(=O)[C@H](CCCCN)NC(=O)[C@H](C)NC(=O)[C@@H]3CCCN3C(=O)[C@@H]3CCCN3C(=O)[C@H](CCCCN)NC(=O)[C@H](CCCCN)NC(=O)[C@H](CO)NC(=O)[C@H](CCC(=O)O)NC(=O)[C@H](CCCCN)NC(=O)[C@H](CCCNC(=N)N)NC(=O)[C@H](CCC(N)=O)NC(=O)[C@H](CCC(N)=O)NC(=O)[C@@H](NC(=O)[C@H](CCCNC(=N)N)NC(=O)[C@H](CCC(N)=O)NC(=O)[C@H](Cc3c[nH]cn3)NC(=O)[C@H](CCC(=O)O)NC(=O)[C@@H]3CCCN3C(=O)[C@H](CO)NC(=O)[C@H](CC(C)C)NC(=O)[C@H](Cc3ccccc3)NC(=O)[C@H](CNC(=O)CCCCCCC)NC(=O)[C@H](CO)NC(=O)CN)C(C)C)C(=O)O)C2=O)C/C1=C/C=C1\CCC[C@]2(C)[C@@H]([C@H](C)CCCC(C)(C)O)CC[C@@H]12 (stereo partly drawn)  half-life (allometric scaling; mouse): ~6.5 h
CC(C)C[C@@H]1NC(=O)[C@H](CC(C)C)NC(=O)[C@H](Cc2c[nH]c3ccccc23)NC(=O)[C@H](CO)NC(=O)[C@H](Cc2c[nH]c3ccccc23)NC(=O)[C@@H]2CCCN2C(=O)[C@H](CC(C)C)NC(=O)[C@H](Cc2c[nH]cn2)NC(=O)[C@@H]2CCCN2C(=O)[C@H](CC(N)=O)NC(=O)[C@H](C)NC(=O)[C@H](Cc2ccc(O)cc2)NC(=O)[C@H](CS)NC(=O)[C@H](CCCCNC(=O)CN2CCN(CC(=O)O)CCN(CC(=O)O)CCN(CC(=O)O)CC2)NC1=O [lutetium-177 labelled]  tissue uptake (Balb/c mouse, female, 4T1 tumour, kidney; intravenous, 3.7 MBq, 72 h): 0.36 %ID
CC[C@H](C)[C@H](NC(=O)[C@H](Cc1ccccc1)NC(=O)[C@H](CCC(=O)O)NC(=O)[C@H](CCCNC(=N)N)NC(=O)[C@H](C)NC(=O)[C@H](C)NC(=O)[C@H](CCC(N)=O)NC(=O)[C@H](CCC(=O)O)NC(=O)[C@H](CCC(=O)O)NC(=O)[C@H](CC(C)C)NC(=O)[C@H](Cc1ccc(O)cc1)NC(=O)[C@H](CO)NC(=O)[C@H](CO)NC(=O)[C@@H](NC(=O)[C@H](CC(=O)O)NC(=O)[C@H](CO)NC(=O)[C@@H](NC(=O)[C@H](Cc1ccccc1)NC(=O)[C@@H](NC(=O)CNC(=O)[C@H](CCC(=O)O)NC(=O)[C@H](C)NC(=O)CCc1c[nH]cn1)[C@@H](C)O)[C@@H](C)O)C(C)C)C(=O)N[C@@H](C)C(=O)N[C@@H](Cc1c[nH]c2ccccc12)C(=O)N[C@@H](CC(C)C)C(=O)N[C@H](C(=O)N[C@@H](CCCNC(=N)N)C(=O)NCC(=O)N[C@@H](CCCNC(=N)N)C(=O)N[C@@H](CCCCNC(=O)COCCOCCNC(=O)COCCOCCNC(=O)CC[C@H](NC(=O)CCCCCCCCCCCCCCCCC(=O)O)C(=O)O)C(=O)NCC(=O)NCC(=O)N[C@@H](CO)C(=O)N[C@@H](CCCCNc1c(NCCCCCN(O)C(=O)CCC(=O)NCCCCCN(O)C(=O)CCC(=O)NCCCCCN(O)C(C)=O)c(=O)c1=O)C(=O)O)C(C)C [zirconium-89 labelled]  tissue uptake (rat, liver; iv, 3 nmol/kg, 168 h, ex vivo): 0.69 %ID/g
O=C(O)C[C@H](NC(=O)[C@H](CC(=O)O)NC(=O)[C@H](CC(=O)O)NC(=O)[C@H](CC(=O)O)NC(=O)[C@H](CC(=O)O)NC(=O)[C@H](CC(=O)O)NC(=O)[C@H](CC(=O)O)NC(=O)[C@H](CC(=O)O)NC(=O)[C@H](CC(=O)O)NC(=O)[C@H](CC(=O)O)NC(=O)[C@H](CC(=O)O)NC(=O)[C@H](CCCCNC(=O)c1ccc(C(=O)NCCOCCOB2BBBBBB3BBBB3B2)cc1)NC(=O)CN1CCN(CC(=O)O)CCN(CC(=O)O)CCN(CC(=O)O)CC1)C(=O)O [gallium-67 labelled]  tissue uptake (gamma counting; ddY mouse, male, 6 weeks old, heart; intravenous, 37 kBq, 10 min): 2.51 %ID/g
CCCCCCCCCC(=O)N[C@@H](Cc1c[nH]c2ccccc12)C(=O)N[C@H](CC(N)=O)C(=O)N[C@@H](CC(=O)O)C(=O)N[C@@H]1C(=O)NCC(=O)N[C@@H](CCCNC(=O)CCC(=O)N2Cc3ccccc3-c3c(nnn3CCC[C@H](NC(=O)CCCCC[N+]3=C(C=CC4=CC(=CC=C5N(C)c6ccccc6C5(C)C)CCC4)C(C)(C)c4ccccc43)C(=O)NCCCCNC(=O)OC(C)(C)C)-c3ccccc32)C(=O)N[C@@H](CC(=O)O)C(=O)N[C@H](C)C(=O)N[C@@H](CC(=O)O)C(=O)NCC(=O)N[C@H](CO)C(=O)N[C@@H]([C@H](C)CC(=O)O)C(=O)N[C@@H](CC(=O)c2ccccc2N)C(=O)O[C@@H]1C  half-life (mouse plasma; 1 µM, up to 240 min, pH 7.4, 37 °C): > 4 h
C[C@@H](O)[C@@H](CO)NC(=O)[C@@H](CCCNC(=N)N)NC(=O)[C@@H]1CCCN1C(=O)[C@@H]1CSSC[C@H](NC(=O)[C@H](Cc2ccccc2)NC(=O)CN2CCN(CC(=O)O)CCN(CC(=O)O)CCN(CC(=O)O)CC2)C(=O)N[C@@H](Cc2ccc(O)cc2)C(=O)N[C@@H](Cc2ccccc2)C(=O)N[C@@H](CCC(N)=O)C(=O)N[C@@H](CC(N)=O)C(=O)N1 [gallium-68 labelled]  tissue uptake (healthy Wistar rat, large intestine; intravenous, 8 MBq, 120 min, individual animals): 0.02 %ID/g
N=C(N)NCCC[C@H](NC(=O)[C@@H](Cc1ccccc1)NC(=O)[C@H](Cc1c[nH]cn1)NC(=O)CCCc1ccccc1)C(=O)N[C@@H](Cc1c[nH]c2ccccc12)C(=O)NCC(=O)N[C@@H](CCCCNC(=O)CCCCCNC(=O)CN1CCN(CC(=O)O)CCN(CC(=O)O)CCN(CC(=O)O)CC1)C(N)=O [actinium-225 labelled]  normal tissue uptake rate constant (kni) (five-compartment model fit; SCID mice, A-375 and A-375/MC1R xenografts): 0.013 h⁻¹
N=C(N)NCCC[C@@H]1NC(=O)[C@H](CCCCNC(=O)c2ccc(CNC34CNCCNCC(N)(CNCCNC3)CNCCNC4)cc2)NC(=O)[C@@H](Cc2ccc(O)cc2)NC(=O)[C@H](CC(=O)O)NC(=O)CNC1=O [copper-64 labelled]  tissue uptake (ex vivo biodistribution; male athymic nude mouse, PC-3 tumour, pancreas; 7.4 MBq, 48 h): 0.8 ± 0.12 %ID/g
Cc1ccccc1NC(=O)Nc1ccc(CC(=O)N[C@@H](CCCCNC(=O)/C=C/c2cccnc2)C(=O)N[C@@H](CCCC(=O)O)C(=O)NC2(C(=O)NCCOCCOCCOCCOCC(=O)N[C@@H](CCCCNC(=S)Nc3ccc(CCCN(CCN4CCN(CP(=O)(O)O)CCN(CP(=O)(O)O)CC4)CC(=O)O)cc3)C(N)=O)CCCCC2)cc1 [gallium-68 labelled]  intact tracer (ZnCl2 solution; 2 h, 37 °C, added: ZnCl2 1 mM): > 95%

Excerpt of the above:
C[C@@H](O)[C@@H](CO)NC(=O)[C@@H](CCCNC(=N)N)NC(=O)[C@@H]1CCCN1C(=O)[C@@H]1CSSC[C@H](NC(=O)[C@H](Cc2ccccc2)NC(=O)CN2CCN(CC(=O)O)CCN(CC(=O)O)CCN(CC(=O)O)CC2)C(=O)N[C@@H](Cc2ccc(O)cc2)C(=O)N[C@@H](Cc2ccccc2)C(=O)N[C@@H](CCC(N)=O)C(=O)N[C@@H](CC(N)=O)C(=O)N1 [gallium-68 labelled]  tissue uptake (healthy Wistar rat, large intestine; intravenous, 8 MBq, 120 min, individual animals): 0.02 %ID/g
